Assay results pooled from the literature.
Lines come from different studies, so protocols differ.
FLT3 autoinhibited: Receptor-type tyrosine-protein kinase FLT3, autoinhibited (FLT3, Homo sapiens, UniProt P36888)
FLT3 R834Q: Receptor-type tyrosine-protein kinase FLT3 (FLT3, Homo sapiens, UniProt P36888, R834Q)
FLT3 D835Y: Receptor-type tyrosine-protein kinase FLT3 (FLT3, Homo sapiens, UniProt P36888, D835Y)

SMILES = CNC(=O)C1CCN(c2cc(C)c(F)cc2NC(=O)c2ccc(-c3cc(O)ccc3C)c(C)c2)CC1; target = FLT3 autoinhibited; effect on = binding; technique = competition with immobilised ligand; tested at = 1 µM; remaining binding = 53%
SMILES = Cc1cnc2nc1Nc1cccc(c1)COC/C=C/COCc1cc(ccc1OCCN1CCOCC1)N2; target = FLT3 R834Q; effect on = binding; tested at = 0.1 µM; remaining binding = 5.7%
SMILES = CCN1CCN(Cc2ccc(C(=O)Nc3ccc(C)c(NCc4cnc5[nH]ccc5c4OC)c3)cc2C(F)(F)F)CC1; target = FLT3 R834Q; effect on = binding; technique = competition with immobilised ligand; tested at = 1 µM; remaining binding = 4.7%
SMILES = CNC1C[S+]2CC[S+]3CC[S+](C1)[Ru-4]321([N]=C=S)[n]2c3ccc(OC)cc3c3c4c(c5cc(F)c[n+]1c5c32)C(=O)NC4=O (centres unmarked); target = FLT3 R834Q; technique = KinomeScan; tested at = 0.1 µM; reference = untreated; remaining binding = 44%
SMILES = CCN1CCN(Cc2ccc(NC(=O)c3ccc(C)c(NC(=O)c4cncc(-c5cccs5)c4)c3)cc2C(F)(F)F)CC1; target = FLT3 (Homo sapiens, UniProt P36888); effect on = binding; technique = competition with immobilised ligand; tested at = 1 µM; remaining binding = 0.65%
SMILES = C=CC(=O)N1CCc2ccc(-n3c(=O)ccc4cnc5ccc(-c6cnn(C)c6)cc5c43)cc21; target = FLT3 autoinhibited; technique = KINOMEscan; tested at = 1 µM; reference = DMSO control; remaining binding = 95%
SMILES = COc1c(Cl)cccc1Nc1c(-c2ccncc2C#C[C@@]2(C)CCCN2C(=O)/C=C/CN(C)C)[nH]c2c1C(=O)NCC2; target = FLT3 D835Y; effect on = binding; technique = competition with immobilised ligand; tested at = 3 µM; remaining binding = 91%
SMILES = Nc1ncc2c(n1)-c1c([nH]c3ccc(C4=CCOCC4)cc13)CCC2; target = FLT3 (Homo sapiens, UniProt P36888, D835H); effect on = binding; technique = competition with immobilised ligand; tested at = 1 µM; remaining binding = 99%
SMILES = C=CC(=O)N1CCCC(n2c(=O)c3ncccc3n(Cc3ccc(Oc4ccccc4)cc3)c2=O)C1 (centres unmarked); target = FLT3 (Homo sapiens, UniProt P36888, K663Q); effect on = cell-free assay; technique = competition with immobilised ligand; tested at = 1 µM; remaining binding = 100%
SMILES = Cc1ccc(-c2c(/C=C(\C#N)C(=O)NC(C)C)n(CCCO)c3ncnc(N)c23)cc1; target = FLT3 D835Y; effect on = binding; technique = competition with immobilised ligand; tested at = 1 µM; remaining binding = 91%
SMILES = CC(C)=CC1OC(C)(C)C2C=C3C(=O)C(Cl)=CC(O)C3C3C(O)C4OC4C(=O)C132 (centres unmarked); target = FLT3 (Homo sapiens, UniProt P36888, D835V); effect on = cell-free assay; technique = competition with immobilised ligand; tested at = 10 µM; remaining binding = 100%
